Experimental data gathered from unrelated publications.
A part holds a random share of what one study measured.

Series 1 — method: RNA Bind-n-Seq; form: RNA; matrix: in vitro; tested at: 365 nM; reference: no-protein control; reading: higher = stronger binding
Target: RNA binding protein fox-1 homolog 2, RRM domain, GST-SBP tag (RBFOX2, Homo sapiens, UniProt O43251-10, residues 100-194)
Setting: natural RNA segment, single round, ends assumed
Target sequence (chain): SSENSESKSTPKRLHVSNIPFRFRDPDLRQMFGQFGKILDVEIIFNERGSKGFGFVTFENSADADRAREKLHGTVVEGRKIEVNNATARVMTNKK
`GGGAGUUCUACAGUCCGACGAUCGAUCAAAAUAAAUAGAGUGUAAAUUCUUUUUAAUGCUUUAGUGAUUAAAUGUUUUAGUAUUUUGAACUGAAAUGGACACACAAACACACACACGCACACACAGACCCACAUGGAAUUCUCGGGUGCCAA` — result for “RBNS enrichment (R)”: 0.545.
Under “RBNS enrichment (R)”, `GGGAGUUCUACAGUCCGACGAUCCAUGCCGGGGGGCCAGUGGAAAGAAGACAGGCCGUCCAGCCCGUGCCCGCCUGCGGCGGGGGCACCCAGCAAGCCCGCCCACCGCCCGCUGCCUCACCUGCUUCGCCACAUGGAAUUCUCGGGUGCCAA` is recorded as 0.246.
For `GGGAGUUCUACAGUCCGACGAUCCUGAGGCUCAUCUGAUACCUGCACCUUCUCCCCAAGCCAGCGUGGACCCUGGUGUCUAUGGUGAAGCUGGGCCCUCCCACCCUGAGCCUUCCUAGACCCUUGGACUCUCAUGGAAUUCUCGGGUGCCAA`, “RBNS enrichment (R)” read 0.336.
`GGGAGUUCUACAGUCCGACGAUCCUGUAGAGACUCUGGUACAGAGGGCAUGGGCACCUGCAGCAUUAUAGCUGUUCUGUCUCCUGGAGACCAAAGCUGGCUUGGAGGAAAAAAUGAUGCCCACAGUCUUGGGAUGGAAUUCUCGGGUGCCAA`: “RBNS enrichment (R)” 1.31.
`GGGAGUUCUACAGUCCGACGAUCUCACUCCACAGUAUGCUAAAGAAGAAAAAGUGAGUGGGCACAACACUUUGACCCUCUGGCUAAGCCCUGGGAGUCCCUGACAGGUCCAGAAACUUCUCUGACACCCAUUCUGGAAUUCUCGGGUGCCAA`: “RBNS enrichment (R)” 0.657.
For `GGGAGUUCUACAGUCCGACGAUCAGUGACUGAUCUUUGGGAAUGUCUUGUCUUUGCAUGGGGCUCAUAGAGAUGUGUGCAGACUUGCUUAUUGUGGUUAGUGUGUAUCAGGAACACACACACAGGUGUUCUGAUGGAAUUCUCGGGUGCCAA`, “RBNS enrichment (R)” read 2.28.
Under “RBNS enrichment (R)”, `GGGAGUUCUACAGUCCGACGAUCAGUUCCUCACAUACAGGACUUUUUAAGCAACACCACAUCUUGUGCUUCUUUGUAGCAGGGUAAAUCGUCCUGUCAAAGGGAGUUGCUGGAAUAAUGGGCCAAACAUCUGGUGGAAUUCUCGGGUGCCAA` is recorded as 0.277.
Under “RBNS enrichment (R)”, `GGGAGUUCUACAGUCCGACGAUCCGAAUUUAAAACAAAAAGGAGGGACUUUAAAAUACCUUCUUGACAAAAAUCAACAAUGCACAACUUACAAAGUGUUCAUUCUAGGGACAAAAUUAAAUAAACAGAAUGUCUGGAAUUCUCGGGUGCCAA` is recorded as 0.362.
`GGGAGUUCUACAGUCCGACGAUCACGCCAAGCUAAUUUUUGUAUUUUUUAGUAGAGAUGGGGUUUCACCAUCUUGGCCAGGCUGGUCUUGAAUUCCUGACCUCAGGUGAUCCACCCACCUUGGCCUCCCAAAGUGGAAUUCUCGGGUGCCAA` — result for “RBNS enrichment (R)”: 2.38.
For `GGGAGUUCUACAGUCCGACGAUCUUUCAUAAUCGAUGUGGUCUACUAAGAAAGAUAACAAUUUGUGCUAAAAUGCCCAUGUUUACCUGUAUUGACCAAAGCUUUCAGUUGUUCUUCAUUCUGUGCUCAGGAUUUGGAAUUCUCGGGUGCCAA`, “RBNS enrichment (R)” read 0.328.
Under “RBNS enrichment (R)”, `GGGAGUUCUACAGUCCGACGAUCUGGGAUAGAUUUUGAUACACCCAAUACCAUACACACAGGAGCUUGGCAUUUGCAAAGUCUAUUCAGUUUCCUUCCACACUCUGACCCACGGUUGUAGCGGAGUGGGCUGAUGGAAUUCUCGGGUGCCAA` is recorded as 0.531.
`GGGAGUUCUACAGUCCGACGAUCAAAUUUUAAAGAGAUACUGGUAUUUUGAAAAUGCAACCUAUAUAUAUUCUUAAUAUCCUUUUAAGAAUAUGGAGAUGAAGAUUGUUUUCUCCAAUUUUCUGUGCCAUUUUUGGAAUUCUCGGGUGCCAA`: “RBNS enrichment (R)” 3.15.

Series 2 — method: universal PBM; form: double-stranded DNA, one strand shown; matrix: in vitro; tested at: not given; reading: higher = stronger binding
Target: Sal-like protein 4, full length isoform B (SALL4, Homo sapiens, UniProt Q9UJQ4-2, residues 1-616)
Setting: 8-mer, flanks averaged, mean of replicates
The E-score of `CGAAATAG` is reported as 0.0348.
`GCTGTAGA` has an E-score of -0.0798.
`AAGGGGCC` has an E-score of -0.31.
The E-score of `AGAACACA` is reported as 0.0213.
The E-score of `CAAACCTC` is reported as -0.152.
With `GTGAAACA` the E-score was 0.114.
`ACGCCCCC` has an E-score of -0.288.
`AGGACATG` has an E-score of 0.0314.
`ATTTCGCG` has an E-score of 0.129.
`ACCCAAAA` has an E-score of -0.0642.
The E-score of `ACATCCGA` is reported as -0.194.
With `CGTAAGCC` the E-score was -0.15.
`AGTGATCA` gave an E-score of -0.076.
With `CGCCATAA` the E-score was 0.153.
`ACCGGGCT` has an E-score of -0.272.
For `GCCTTCGA`, the E-score was -0.112.
With `CCTCAGCA` the E-score was -0.285.

Series 3 — method: protein-binding microarray; form: double-stranded DNA, one strand shown; matrix: in vitro; tested at: 2200 nM top; setting: 60-bp whole probe; added: salmon DNA 0.4 mg/ml; reference: random background probes; reading: higher = stronger binding; constant ends, left off below: GCCTAGCAC … GTCTTGATTCGCTTGACGCTGCTG
Target: Interferon regulatory factor 7, full length, phosphomimetic (IRF7, Homo sapiens, UniProt Q92985, residues 1-503, S471D/S472D/S475D/S476D/S477D/S483D/S484D/S487D)
Target sequence (chain): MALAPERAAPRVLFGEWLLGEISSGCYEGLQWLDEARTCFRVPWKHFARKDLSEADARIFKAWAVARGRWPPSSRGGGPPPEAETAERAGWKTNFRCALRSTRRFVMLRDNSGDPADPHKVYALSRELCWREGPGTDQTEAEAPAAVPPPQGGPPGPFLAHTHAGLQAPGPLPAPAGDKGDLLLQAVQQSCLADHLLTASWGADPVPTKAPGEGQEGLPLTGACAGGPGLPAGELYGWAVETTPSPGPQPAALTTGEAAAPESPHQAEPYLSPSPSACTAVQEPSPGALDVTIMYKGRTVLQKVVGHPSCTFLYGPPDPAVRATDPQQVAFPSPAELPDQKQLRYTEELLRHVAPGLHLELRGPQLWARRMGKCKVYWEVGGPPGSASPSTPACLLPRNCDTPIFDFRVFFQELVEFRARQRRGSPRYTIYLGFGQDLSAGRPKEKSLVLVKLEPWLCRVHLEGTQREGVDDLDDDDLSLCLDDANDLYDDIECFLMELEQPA
`GACGGTATCGAATATCGGGACGTGCTA` — result for “fitted relative affinity”: -0.052 z-score.
`GACGAACTGGACTTTCGGGACGTGCTA` — result for “fitted relative affinity”: 2.42 z-score.
Under “fitted relative affinity”, `TTAGGACTGCTTATCATTTAGTGCTAG` is recorded as 0.111 z-score.
`TCAGCAAAAATGATTGGACTGTGCTAG` — result for “fitted relative affinity”: -0.729 z-score.
`TCACGAGTCCCTATCTCACTGTGCTAG` — result for “fitted relative affinity”: 1.21 z-score.
`CTAGAACTGGGGTATCGATTAGTGCTA`: “fitted relative affinity” 0.0646 z-score.
For `GATGATTTCGGGACTGGAGACGTGCTA`, “fitted relative affinity” read 1.21 z-score.
`GACCATTTCGGGTTTCGAGACGTGCTA`: “fitted relative affinity” 4.05 z-score.
`GCCGGTCTCGGTATCGGGACGTGCTAG`: “fitted relative affinity” 0.31 z-score.
`TTAGGTCTCCTAGTGCTTTAGTGCTAG` — result for “fitted relative affinity”: -0.363 z-score.
Under “fitted relative affinity”, `TTAGTTATCCTTCTCCTTTAGTGCTAG` is recorded as 1.72 z-score.
Under “fitted relative affinity”, `TAAGATTTCAGTCTCGATTAGTGCTAG` is recorded as 0.507 z-score.
For `GACGATTTCGGGACTGGTGACGTGCTA`, “fitted relative affinity” read 1.31 z-score.
For `TAAGGACTGCTACTGCTTTAGTGCTAG`, “fitted relative affinity” read -0.197 z-score.
For `TTAGAACTGGGTCTCGGTTAGTGCTAG`, “fitted relative affinity” read 0.179 z-score.
`GACGGTTTTGACACTGGGGACGTGCTA`: “fitted relative affinity” 0.657 z-score.
For `TTGGGTTTCGGGTTTCGGTTAGTGCTA`, “fitted relative affinity” read 9.34 z-score.
For `TTCGCTTTCTTTACCACATTGTGCTAG`, “fitted relative affinity” read 3.11 z-score.
For `GACAGACTGGACACTGGGGACGTGCTA`, “fitted relative affinity” read -0.715 z-score.
`GACGGTTTCCATTTCCTGACGTGCTAG`: “fitted relative affinity” 5.66 z-score.
For `GACGATTTCAGACTGGAAACGTGCTAG`, “fitted relative affinity” read 0.306 z-score.
Under “fitted relative affinity”, `GACGGTTTCGGACTGGTGACGTGCTAG` is recorded as 4.16 z-score.

Series 4 — method: protein binding microarray; form: double-stranded DNA, one strand shown; matrix: in vitro; tested at: not given; reference: not given; reading: higher = stronger binding
Target: Histone acetyltransferase KAT6A, winged helix 2, GST fusion (KAT6A, Homo sapiens, UniProt Q92794, residues 85-181)
Setting: 8-mer, flanks averaged, mean of 2 arrays, mostly near background
Residues (chain): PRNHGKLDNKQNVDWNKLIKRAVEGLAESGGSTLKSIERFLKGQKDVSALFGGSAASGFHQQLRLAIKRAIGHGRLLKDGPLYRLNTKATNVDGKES
`CCGTGTCA` gave an E-score of 0.0764.
With `ACTGAGGA` the E-score was 0.108.
`CATTATTA` has an E-score of -0.0155.
`GAGACATC` has an E-score of -0.0307.
`ACAAAATA` gave an E-score of -0.00645.
`AAAATCCT` has an E-score of 0.0523.
For `ACCTATGA`, the E-score was -0.268.
`CCGGAGCG` gave an E-score of 0.159.
With `CATACGCG` the E-score was 0.0682.
For `ACTGAAAC`, the E-score was 0.0677.
`ATGACGGG` has an E-score of 0.021.
The E-score of `GCTATAAA` is reported as 0.0379.
For `AAATCCCG`, the E-score was 0.000195.
For `CCCATAGG`, the E-score was 0.0396.
`TCCAAGGA` gave an E-score of -0.0346.
For `ACACCAAA`, the E-score was 0.0738.
With `AAATGTGG` the E-score was 0.0263.
`ACGGTCCA` gave an E-score of -0.0775.
`ACGATTAT` gave an E-score of -0.215.
For `CCTGAAGA`, the E-score was 0.0611.
With `AATCAGCT` the E-score was 0.0404.
`TCCCTCGA` has an E-score of -0.0121.
`ATCGAATG` has an E-score of -0.111.
`CGTCTAGA` gave an E-score of -0.101.

Excerpt of the above (series 1):
`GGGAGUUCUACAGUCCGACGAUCCUGUAGAGACUCUGGUACAGAGGGCAUGGGCACCUGCAGCAUUAUAGCUGUUCUGUCUCCUGGAGACCAAAGCUGGCUUGGAGGAAAAAAUGAUGCCCACAGUCUUGGGAUGGAAUUCUCGGGUGCCAA`: “RBNS enrichment (R)” 1.31.
Under “RBNS enrichment (R)”, `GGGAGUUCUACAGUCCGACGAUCCGAAUUUAAAACAAAAAGGAGGGACUUUAAAAUACCUUCUUGACAAAAAUCAACAAUGCACAACUUACAAAGUGUUCAUUCUAGGGACAAAAUUAAAUAAACAGAAUGUCUGGAAUUCUCGGGUGCCAA` is recorded as 0.362.
Under “RBNS enrichment (R)”, `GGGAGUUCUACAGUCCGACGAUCCAUGCCGGGGGGCCAGUGGAAAGAAGACAGGCCGUCCAGCCCGUGCCCGCCUGCGGCGGGGGCACCCAGCAAGCCCGCCCACCGCCCGCUGCCUCACCUGCUUCGCCACAUGGAAUUCUCGGGUGCCAA` is recorded as 0.246.
For `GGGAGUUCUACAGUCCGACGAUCCUGAGGCUCAUCUGAUACCUGCACCUUCUCCCCAAGCCAGCGUGGACCCUGGUGUCUAUGGUGAAGCUGGGCCCUCCCACCCUGAGCCUUCCUAGACCCUUGGACUCUCAUGGAAUUCUCGGGUGCCAA`, “RBNS enrichment (R)” read 0.336.
Under “RBNS enrichment (R)”, `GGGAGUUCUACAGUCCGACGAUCAGUUCCUCACAUACAGGACUUUUUAAGCAACACCACAUCUUGUGCUUCUUUGUAGCAGGGUAAAUCGUCCUGUCAAAGGGAGUUGCUGGAAUAAUGGGCCAAACAUCUGGUGGAAUUCUCGGGUGCCAA` is recorded as 0.277.
For `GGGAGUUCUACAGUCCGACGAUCAGUGACUGAUCUUUGGGAAUGUCUUGUCUUUGCAUGGGGCUCAUAGAGAUGUGUGCAGACUUGCUUAUUGUGGUUAGUGUGUAUCAGGAACACACACACAGGUGUUCUGAUGGAAUUCUCGGGUGCCAA`, “RBNS enrichment (R)” read 2.28.
